{"sequences": {"note": "Protein sequences, listed by entry. Tags and fused reporters are not part of them. Residues count along the entry.", "UniProt P16083, whole entry": "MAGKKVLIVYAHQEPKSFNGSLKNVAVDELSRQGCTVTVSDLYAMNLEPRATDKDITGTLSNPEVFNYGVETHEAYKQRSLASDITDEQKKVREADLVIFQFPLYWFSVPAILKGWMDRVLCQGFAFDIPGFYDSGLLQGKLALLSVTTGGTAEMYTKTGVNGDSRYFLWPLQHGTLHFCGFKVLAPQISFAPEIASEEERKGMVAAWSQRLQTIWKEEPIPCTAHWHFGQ", "UniProt Q00960, 27-1482 limits assumed": "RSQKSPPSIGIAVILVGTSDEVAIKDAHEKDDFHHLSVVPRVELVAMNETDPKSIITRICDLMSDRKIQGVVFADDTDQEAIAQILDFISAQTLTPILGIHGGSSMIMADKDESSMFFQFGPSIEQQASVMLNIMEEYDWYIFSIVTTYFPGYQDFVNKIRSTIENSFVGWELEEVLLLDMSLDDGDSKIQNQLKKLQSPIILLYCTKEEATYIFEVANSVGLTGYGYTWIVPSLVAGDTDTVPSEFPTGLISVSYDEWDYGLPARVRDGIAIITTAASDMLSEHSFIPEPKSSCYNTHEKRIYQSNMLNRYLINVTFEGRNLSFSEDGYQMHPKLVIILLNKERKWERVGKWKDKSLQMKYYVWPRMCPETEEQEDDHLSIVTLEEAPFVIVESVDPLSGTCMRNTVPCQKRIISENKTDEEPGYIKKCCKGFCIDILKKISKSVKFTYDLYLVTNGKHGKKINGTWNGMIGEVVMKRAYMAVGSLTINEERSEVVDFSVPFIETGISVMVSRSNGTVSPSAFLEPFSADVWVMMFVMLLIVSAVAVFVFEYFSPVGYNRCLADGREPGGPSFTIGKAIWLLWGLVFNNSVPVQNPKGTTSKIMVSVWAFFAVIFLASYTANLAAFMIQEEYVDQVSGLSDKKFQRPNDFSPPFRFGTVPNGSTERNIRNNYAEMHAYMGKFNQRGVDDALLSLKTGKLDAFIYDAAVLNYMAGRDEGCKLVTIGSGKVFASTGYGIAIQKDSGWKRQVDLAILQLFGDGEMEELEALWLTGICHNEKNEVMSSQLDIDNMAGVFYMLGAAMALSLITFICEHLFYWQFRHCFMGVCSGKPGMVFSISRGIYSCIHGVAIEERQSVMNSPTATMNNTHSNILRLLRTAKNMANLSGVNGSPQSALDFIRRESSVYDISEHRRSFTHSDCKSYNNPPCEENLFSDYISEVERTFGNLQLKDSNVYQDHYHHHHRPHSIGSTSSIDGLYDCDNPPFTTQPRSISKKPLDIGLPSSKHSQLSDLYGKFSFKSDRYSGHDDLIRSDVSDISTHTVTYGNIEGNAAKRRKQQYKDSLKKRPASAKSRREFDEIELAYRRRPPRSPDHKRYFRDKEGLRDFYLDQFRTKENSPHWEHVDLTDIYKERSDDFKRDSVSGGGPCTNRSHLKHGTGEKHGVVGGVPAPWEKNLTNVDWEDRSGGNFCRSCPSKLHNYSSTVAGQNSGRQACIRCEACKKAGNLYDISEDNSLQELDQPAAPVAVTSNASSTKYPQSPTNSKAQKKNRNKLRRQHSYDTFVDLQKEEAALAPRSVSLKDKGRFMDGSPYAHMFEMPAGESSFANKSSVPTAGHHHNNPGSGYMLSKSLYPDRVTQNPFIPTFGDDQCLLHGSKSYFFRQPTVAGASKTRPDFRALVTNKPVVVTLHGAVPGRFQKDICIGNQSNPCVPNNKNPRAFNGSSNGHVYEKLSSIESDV", "UniProt P28072, 35-239 limits assumed": "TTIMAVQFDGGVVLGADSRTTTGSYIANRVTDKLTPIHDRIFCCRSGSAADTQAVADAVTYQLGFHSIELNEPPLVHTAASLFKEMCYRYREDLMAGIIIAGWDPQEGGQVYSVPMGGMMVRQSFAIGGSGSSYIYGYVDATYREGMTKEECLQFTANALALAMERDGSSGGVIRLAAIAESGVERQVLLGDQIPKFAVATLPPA", "UniProt P07711, 114-333 limits assumed": "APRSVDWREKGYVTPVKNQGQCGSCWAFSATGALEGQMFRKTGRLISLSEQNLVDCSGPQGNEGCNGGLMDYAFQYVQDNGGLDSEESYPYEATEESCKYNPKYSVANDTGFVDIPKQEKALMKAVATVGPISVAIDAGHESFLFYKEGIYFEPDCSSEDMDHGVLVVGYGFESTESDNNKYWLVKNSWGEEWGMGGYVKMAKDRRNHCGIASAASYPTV", "UniProt O14757, whole entry": "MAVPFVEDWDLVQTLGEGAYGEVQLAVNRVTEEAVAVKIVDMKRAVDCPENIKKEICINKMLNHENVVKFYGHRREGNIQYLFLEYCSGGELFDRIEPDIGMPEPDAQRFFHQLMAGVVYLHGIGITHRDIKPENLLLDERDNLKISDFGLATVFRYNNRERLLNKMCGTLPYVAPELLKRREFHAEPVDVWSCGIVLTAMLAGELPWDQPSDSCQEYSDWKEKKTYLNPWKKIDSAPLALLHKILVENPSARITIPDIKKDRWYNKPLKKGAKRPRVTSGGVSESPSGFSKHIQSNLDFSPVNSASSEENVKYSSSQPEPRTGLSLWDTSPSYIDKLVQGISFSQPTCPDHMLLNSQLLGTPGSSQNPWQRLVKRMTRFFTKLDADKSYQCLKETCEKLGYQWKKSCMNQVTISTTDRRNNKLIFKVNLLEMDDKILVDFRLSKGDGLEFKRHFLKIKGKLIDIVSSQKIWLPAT", "UniProt A0A0D3DNX9, 1-518": "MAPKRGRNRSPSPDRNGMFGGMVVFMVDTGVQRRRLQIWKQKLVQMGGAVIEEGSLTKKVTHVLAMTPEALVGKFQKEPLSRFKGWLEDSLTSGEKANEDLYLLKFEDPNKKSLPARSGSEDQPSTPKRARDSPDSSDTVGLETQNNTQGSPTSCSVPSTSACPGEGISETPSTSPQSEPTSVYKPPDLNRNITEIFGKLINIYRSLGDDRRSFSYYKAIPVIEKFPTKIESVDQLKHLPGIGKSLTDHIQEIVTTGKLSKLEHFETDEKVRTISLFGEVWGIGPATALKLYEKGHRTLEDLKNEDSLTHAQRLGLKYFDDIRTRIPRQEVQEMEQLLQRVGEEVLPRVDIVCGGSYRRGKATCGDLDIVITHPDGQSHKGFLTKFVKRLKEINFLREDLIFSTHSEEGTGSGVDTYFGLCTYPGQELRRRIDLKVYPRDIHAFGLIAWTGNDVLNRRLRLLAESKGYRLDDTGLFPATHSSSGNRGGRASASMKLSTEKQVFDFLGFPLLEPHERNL", "UniProt Q16539, whole entry": "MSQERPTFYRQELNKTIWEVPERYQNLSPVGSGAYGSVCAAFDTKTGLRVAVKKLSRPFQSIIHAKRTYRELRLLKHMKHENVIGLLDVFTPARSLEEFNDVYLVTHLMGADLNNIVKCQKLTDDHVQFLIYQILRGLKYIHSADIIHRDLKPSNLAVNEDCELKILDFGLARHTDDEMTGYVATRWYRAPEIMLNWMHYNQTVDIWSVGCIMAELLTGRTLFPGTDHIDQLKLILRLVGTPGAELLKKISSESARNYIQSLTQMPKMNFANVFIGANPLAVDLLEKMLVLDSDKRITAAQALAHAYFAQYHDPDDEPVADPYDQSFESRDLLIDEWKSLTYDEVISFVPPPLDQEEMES", "UniProt P10276, 183-417 limits assumed": "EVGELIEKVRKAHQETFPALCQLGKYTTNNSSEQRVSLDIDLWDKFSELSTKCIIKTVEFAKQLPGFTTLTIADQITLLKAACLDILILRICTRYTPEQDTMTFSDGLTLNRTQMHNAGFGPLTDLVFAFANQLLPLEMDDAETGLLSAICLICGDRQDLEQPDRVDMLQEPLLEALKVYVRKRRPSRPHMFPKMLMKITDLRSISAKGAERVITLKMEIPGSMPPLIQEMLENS", "UniProt P34913, whole entry": "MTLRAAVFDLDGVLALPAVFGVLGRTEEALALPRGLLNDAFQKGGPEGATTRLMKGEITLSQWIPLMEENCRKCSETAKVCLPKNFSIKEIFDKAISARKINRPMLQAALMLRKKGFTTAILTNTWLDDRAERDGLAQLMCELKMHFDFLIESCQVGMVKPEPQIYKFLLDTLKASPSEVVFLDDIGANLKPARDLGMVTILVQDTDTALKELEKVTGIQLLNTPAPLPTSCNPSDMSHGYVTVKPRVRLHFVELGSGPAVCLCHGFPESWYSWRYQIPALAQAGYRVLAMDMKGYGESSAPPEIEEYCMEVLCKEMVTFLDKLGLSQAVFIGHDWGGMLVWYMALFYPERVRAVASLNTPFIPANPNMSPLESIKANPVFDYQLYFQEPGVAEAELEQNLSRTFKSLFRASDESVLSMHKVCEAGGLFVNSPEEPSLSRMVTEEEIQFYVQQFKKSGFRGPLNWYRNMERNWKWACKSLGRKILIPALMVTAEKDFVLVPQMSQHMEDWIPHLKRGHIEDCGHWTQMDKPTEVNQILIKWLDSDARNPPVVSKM", "UniProt P18440, whole entry": "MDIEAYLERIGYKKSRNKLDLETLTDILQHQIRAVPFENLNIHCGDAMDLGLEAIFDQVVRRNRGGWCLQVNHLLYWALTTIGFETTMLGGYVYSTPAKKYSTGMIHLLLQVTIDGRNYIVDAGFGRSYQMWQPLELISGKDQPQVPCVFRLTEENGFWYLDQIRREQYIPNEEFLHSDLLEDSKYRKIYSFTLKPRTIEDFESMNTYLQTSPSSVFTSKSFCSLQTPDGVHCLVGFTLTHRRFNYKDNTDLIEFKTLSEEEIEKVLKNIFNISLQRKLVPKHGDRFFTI", "UniProt P09917, whole entry": "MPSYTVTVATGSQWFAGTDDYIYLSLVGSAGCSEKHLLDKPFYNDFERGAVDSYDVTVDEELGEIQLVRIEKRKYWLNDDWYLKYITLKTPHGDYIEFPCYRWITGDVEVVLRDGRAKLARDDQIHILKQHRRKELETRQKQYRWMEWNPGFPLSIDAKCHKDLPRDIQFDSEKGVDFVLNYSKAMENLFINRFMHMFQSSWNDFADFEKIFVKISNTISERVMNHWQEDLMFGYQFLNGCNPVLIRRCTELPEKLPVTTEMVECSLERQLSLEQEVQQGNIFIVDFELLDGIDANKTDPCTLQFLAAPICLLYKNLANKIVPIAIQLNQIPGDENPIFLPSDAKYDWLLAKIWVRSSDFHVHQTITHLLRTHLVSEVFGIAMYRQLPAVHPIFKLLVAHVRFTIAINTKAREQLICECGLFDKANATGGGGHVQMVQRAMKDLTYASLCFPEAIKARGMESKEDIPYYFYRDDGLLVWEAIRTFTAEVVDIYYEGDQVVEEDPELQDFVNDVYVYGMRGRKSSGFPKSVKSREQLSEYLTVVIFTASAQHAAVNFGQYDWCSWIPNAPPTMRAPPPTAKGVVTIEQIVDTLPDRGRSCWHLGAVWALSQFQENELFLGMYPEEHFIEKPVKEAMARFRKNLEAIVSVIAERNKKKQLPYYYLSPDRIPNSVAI"}, "data": "Assay results from different studies", "NQO2": "Ribosyldihydronicotinamide dehydrogenase [quinone] (NQO2, Homo sapiens, UniProt P16083)", "Grin1/Grin2b": "Glutamate NMDA receptor; Grin1/Grin2b (Grin1/Grin2b, Rattus norvegicus, UniProt P35439+Q00960)", "note": "Protocols differ between the studies behind these lines. ± marks the error that the study gave."}
{"Compound": "CC(C)CC(NC(=O)C(Cc1ccccc1)NC(=O)c1cnc(C(=O)NC(Cc2ccccc2)C(=O)NC(CC(C)C)B(O)O)cn1)B(O)O (centres unmarked)", "tested on": "Proteasome subunit beta type-6 (PSMB6, Homo sapiens, UniProt P28072)", "test": "caspase-like activity, inhibitor, Proteasome-Glo", "test system": "RPMI-8226", "conditions": "24 h", "quantity": "IC50", "result": "13.5 ± 0.87 nM"}
{"Compound": "CCc1ccccc1NC(=O)CSC(=O)NNC(=O)[C@@H](Cc1c[nH]c2ccccc12)NC(=O)OC(C)(C)C", "tested on": "Procathepsin L (CTSL, Homo sapiens, UniProt P07711)", "test": "enzyme activity, inhibitor", "conditions": "added: Z-Phe-Arg-AMC substrate", "quantity": "IC50", "result": "33000 ± 1750 nM"}
{"Compound": "COc1ccc2[nH]c(C(=O)Nc3ccc(C(CC(C)C)=NNC(=N)N)cc3)cc2c1", "tested on": "Serine/threonine-protein kinase Chk1 (CHEK1, Homo sapiens, UniProt O14757)", "test": "kinase activity, inhibitor, IMAP fluorescence polarization", "quantity": "IC50", "result": "59000 nM"}
{"Compound": "CC/C=C\\C/C=C\\CCC/C=C/C=C/C=C\\CCCC(=O)O", "tested on": "DNA polymerase (Brassica oleracea var. botrytis, UniProt A0A0D3DNX9)", "test": "enzyme activity, inhibitor", "quantity": "IC50", "result": "> 100000 nM"}
{"Compound": "CCOC(=O)c1c(-c2ccc(Cl)cc2Cl)n(-c2nc(-c3ccc(Cl)cc3)c3c(NC(=O)c4ccccc4)nnc-3[nH]2)[nH]c1=O", "tested on": "SK-MEL-28", "test": "SRB", "conditions": "10 µM", "quantity": "cell growth", "result": "14.3%"}
{"Compound": "CC(C)C[C@H](NC(=O)[C@H](C)NC(=O)[C@H](CCCNC(=N)N)NC(=O)[C@H](CCCNC(=N)N)NC(=O)[C@H](CCCNC(=N)N)NC(=O)[C@H](C)NC(=O)[C@H](CC(C)C)NC(=O)[C@H](CCCNC(=N)N)NC(=O)[C@H](CO)NC(=O)[C@H](CCCCN)NC(=O)[C@H](CO)NC(=O)Cn1cc(COC(=O)[C@]2(C)C=C(C(=O)OC(C)(C)C)C(=O)CC2)nn1)C(=O)O", "tested on": "Mitogen-activated protein kinase 14 (MAPK14, Homo sapiens, UniProt Q16539)", "test": "enzyme activity, inhibitor, D-SENSOR", "conditions": "0.823 µM", "quantity": "normalized kinase activity", "result": 0.319}
{"Compound": "CCOC(=O)C(C)Oc1ccc2c(=O)n(CC(=O)Nc3ccc4c(c3)OCCO4)ccc2c1 (centres unmarked)", "tested on": "Retinoic acid receptor alpha (RARA, Homo sapiens, UniProt P10276)", "test": "inverse agonist, Gal4 UAS-luciferase reporter", "test system": "HEK293T cells", "quantity": "IC50", "result": "360 nM"}
{"Compound": "CN(C)CCNC(=O)c1cccc2ccc(-c3ccc(-c4ccccc4)cc3)nc12", "tested on": "NQO2", "test": "enzyme activity, inhibitor", "conditions": "no BSA, added: 200 µM NRH, DCPIP", "quantity": "IC50", "result": "70 ± 10 nM"}
{"Compound": "CCCCNC(=O)C(=O)NCCCC/C=C\\CCCCCCC1=NOS(=O)N1 (centres unmarked)", "tested on": "Bifunctional epoxide hydrolase 2 (EPHX2, Homo sapiens, UniProt P34913)", "test": "epoxide hydrolase activity, inhibitor", "conditions": "5 min preincubation, pH 7.0, 30 °C", "quantity": "IC50", "result": "> 500 nM"}
{"Compound": "CON(C1CC[C@@]2(C)[C@H](CC[C@@H]3[C@@H]2CC[C@]2(C)[C@@H](c4ccc(=O)oc4)CC[C@]32O)C1)C1OCC(O)C(O)C1O (some centres unmarked)", "tested on": "Atp1a2, with beta-1 subunit (Rattus norvegicus, UniProt P06686)", "test": "Na+/K+ pump current, inhibitor, two-electrode voltage clamp", "test system": "Xenopus oocytes expressing rat α2/β1", "conditions": "holding potential -60 mV, endogenous current subtracted", "quantity": "IC50", "result": "110 nM"}
{"Compound": "CCOC(=O)Oc1ccc2c(c1OC(=O)OCC)C(=O)c1ccccc1C2=O", "tested on": "Arylamine N-acetyltransferase 1 (NAT1, Homo sapiens, UniProt P18440)", "test": "PABA N-acetylation, inhibitor", "test system": "cryopreserved human hepatocytes", "conditions": "1 h preincubation, added: 10 µM p-aminobenzoic acid", "quantity": "IC50", "result": "75500 ± 300 nM"}
{"Compound": "CCCN(CCc1ccc(Cl)c(Cl)c1)C[C@H](O)COc1ccc(NS(C)(=O)=O)cc1", "tested on": "Grin1/Grin2b", "conditions": "pH 6.9", "quantity": "IC50", "result": "94 nM"}
{"Compound": "CCN(CC)CCCC(C)Nc1cc(-c2ccccc2)nc2cc(OC)ccc12 (centres unmarked)", "tested on": "NQO2", "test": "enzyme activity, inhibitor", "conditions": "added: 200 µM NRH, DCPIP, 2 µM BSA", "quantity": "IC50", "result": "860 ± 150 nM"}
{"Compound": "N#Cc1c(-c2ccc(Cl)cc2Cl)n(-c2nc(-c3ccc(Cl)cc3)c3c(NC(=O)c4ccccc4)nnc-3[nH]2)[nH]c1=O", "tested on": "SF-539", "test": "SRB", "conditions": "10 µM", "quantity": "cell growth", "result": "-63.7%"}
{"Compound": "C=C(C)C(=O)Nc1ccc(-c2c(-c3ccc(Oc4nccc(C)n4)c(F)c3)c3c(N)ncnc3n2C)cc1", "tested on": "ESS-1", "test": "cell growth, CellTiter-Glo", "conditions": "120 h", "quantity": "IC50", "result": "691 nM"}
{"Compound": "COc1ccc(C=CC(=O)c2ccc(O)cc2)c(O)c1", "tested on": "Polyunsaturated fatty acid 5-lipoxygenase (ALOX5, Homo sapiens, UniProt P09917)", "test": "enzyme activity", "test system": "cell-free", "quantity": "IC50", "result": "4390 nM"}
{"Compound": "CCCCCN(CCc1ccc(Cl)c(Cl)c1)C[C@H](O)COc1ccc(NS(C)(=O)=O)cc1", "tested on": "Grin1/Grin2b", "conditions": "pH 7.6", "quantity": "IC50", "result": "600 nM"}
